Results collected from several papers.
Lines come from different studies, so protocols differ.
Target: Phosphatidylinositol 4-phosphate 5-kinase type-1 alpha (PIP5K1A, Homo sapiens, UniProt Q99755)

`CNC(=O)C1CCN(c2cc(C)c(F)cc2NC(=O)c2ccc(-c3cc(O)ccc3C)c(C)c2)CC1` has a remaining binding of 97% (binding, competition with immobilised ligand; 1 µM).
`CC(C)=CC1OC(C)(C)C2C=C3C(=O)C(Cl)=CC(O)C3C3C(O)C4OC4C(=O)C132` (stereo not drawn) has a remaining binding of 100% (cell-free assay, competition with immobilised ligand; 10 µM).
For `COc1c(Cl)cccc1Nc1c(-c2ccncc2C#C[C@@]2(C)CCCN2C(=O)/C=C/CN(C)C)[nH]c2c1C(=O)NCC2`, the remaining binding was 36% (cell-free assay, competition with immobilised ligand; 3 µM).
`CNC(=O)C[C@H](Cc1ccc(C#N)cc1)NC(=O)c1cc(-c2ccc(CN[C@H](C)c3ccc(C)cc3)o2)ccc1Cl` — result for “activity vs control”: 103% (enzyme activity, inhibitor; 1 µM).
For `Nc1ncc2c(n1)-c1c([nH]c3ccc(C4=CCOCC4)cc13)CCC2`, the remaining binding was 90% (binding, competition with immobilised ligand; 1 µM).
For `C=CC(=O)N1Cc2nc(-c3cc(-c4cc(Cl)cnc4Cl)c(F)cc3F)n(-c3ccncn3)c2C1`, the inhibition was 1.9% (cell-free assay, inhibitor; 1 µM).
For `CCN1CCN(Cc2ccc(C(=O)Nc3ccc(C)c(NCc4cnc5[nH]ccc5c4OC)c3)cc2C(F)(F)F)CC1`, the remaining binding was 100% (binding, competition with immobilised ligand; 1 µM).
`CN1CC[C@@H](COc2cnc(C#N)cc2-c2ccn3nc(NC(=O)C4CC4)cc3c2)C1` gave an inhibition of 2% (enzyme activity, inhibitor; 1 µM).
`C=CC(=O)N1CCc2ccc(-n3c(=O)ccc4cnc5ccc(-c6cnn(C)c6)cc5c43)cc21` gave a remaining binding of 82% (KINOMEscan; 1 µM; relative to: DMSO control).
`Cc1ccc(-c2c(/C=C(\C#N)C(=O)NC(C)C)n(CCCO)c3ncnc(N)c23)cc1` gave a remaining binding of 100% (cell-free assay, competition with immobilised ligand; 1 µM).
With `C[C@]1(O)CCCN(c2nc(Nc3ccc(S(=O)(=O)N[C@H]4CC[C@H](CN5CCN(c6ccc(C7CCC(=O)NC7=O)cc6F)CC5)CC4)cc3)ncc2C(F)(F)F)C1` (stereo partly drawn) the remaining binding was 4.5% (binding, competition with immobilised ligand; 1 µM).
For `O=C(Cc1ccc(OCc2ccccc2)cc1)NC1(C(=O)O)CCN(C(=O)c2ccc(-c3cccc(Cl)c3)cc2)CC1`, “activity vs control” read 113% (enzyme activity, inhibitor; 10 µM).
`Cc1nc2c(F)cc(-c3nc(Nc4ccc(CNC(=O)CCCCCCC(=O)NO)cc4)ncc3F)cc2n1C(C)C` has an inhibition of 0% (enzyme activity, inhibitor; 1 µM).
`CNC1C[S+]2CC[S+]3CC[S+](C1)[Ru-4]321([N]=C=S)[n]2c3ccc(OC)cc3c3c4c(c5cc(F)c[n+]1c5c32)C(=O)NC4=O` (stereo not drawn) has a remaining binding of 43% (KinomeScan; 0.1 µM; relative to: untreated).
For `COc1cc(Nc2nc(C)cc(-c3cnn4nc(OC)ccc34)n2)cc(C(F)(F)F)c1`, the remaining activity was 81% (inhibitor; 1 µM; relative to: control).
`Cc1cnc2nc1Nc1cccc(c1)COC/C=C/COCc1cc(ccc1OCCN1CCOCC1)N2` has a remaining binding of 65% (binding; 0.1 µM).
With `C=CC(=O)N1CCCC(n2c(=O)c3ncccc3n(Cc3ccc(Oc4ccccc4)cc3)c2=O)C1` (stereo not drawn) the remaining binding was 100% (cell-free assay, competition with immobilised ligand; 1 µM).
The remaining binding of `COc1cc(Nc2nccc(-c3cnn4nc(OC)ccc34)n2)cc(C(F)(F)F)c1` is reported as 100% (binding, competition with immobilised ligand; 1 µM).

For quick reference, copied from above:
For `COc1c(Cl)cccc1Nc1c(-c2ccncc2C#C[C@@]2(C)CCCN2C(=O)/C=C/CN(C)C)[nH]c2c1C(=O)NCC2`, the remaining binding was 36% (cell-free assay, competition with immobilised ligand; 3 µM).
`CNC1C[S+]2CC[S+]3CC[S+](C1)[Ru-4]321([N]=C=S)[n]2c3ccc(OC)cc3c3c4c(c5cc(F)c[n+]1c5c32)C(=O)NC4=O` (stereo not drawn) has a remaining binding of 43% (KinomeScan; 0.1 µM; relative to: untreated).
For `COc1cc(Nc2nc(C)cc(-c3cnn4nc(OC)ccc34)n2)cc(C(F)(F)F)c1`, the remaining activity was 81% (inhibitor; 1 µM; relative to: control).
